Measured values collected from several papers.
Each numbered part is a random draw from the data of one study; scales do not carry over between parts. Positions count from the first letter of the parent shown.

Block 1
Target: RNA binding protein fox-1 homolog 2, RRM domain, GST-SBP tag (RBFOX2, Homo sapiens, UniProt O43251-10, residues 100-194)
Technique: RNA Bind-n-Seq
Form: RNA
Matrix: in vitro
Tested at: 365 nM
Setting: natural RNA segment, single round, ends assumed
Reference: no-protein control
Direction: higher = stronger binding
Quantity: RBNS enrichment (R)
Residues (chain): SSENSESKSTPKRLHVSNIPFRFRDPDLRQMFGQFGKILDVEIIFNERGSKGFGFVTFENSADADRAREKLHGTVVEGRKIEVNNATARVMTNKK
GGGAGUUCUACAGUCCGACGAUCAGGUCUGAGCUUGUGAAAAGAAAGUGGUUGGUCUGAGGUUGGAGGAAGCUGAAUGGAAUCUGACGGUUGGGAGUGGUGGAAAUUGGAAGGAUACCAGGAGGUAUUUGGGAUGGAAUUCUCGGGUGCCAA: 1.33
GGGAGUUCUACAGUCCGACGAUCACAGACUGCAGCGUGCAUGGCCUCUACCCACAAGAGAUGCACUGCAGGAGGCCGGCCCUGUUCUCUGUACUCAGCAUUUUGACAUCUCCUUUGAAGGCCAGGUAUAUGUGUGGAAUUCUCGGGUGCCAA: 3.79
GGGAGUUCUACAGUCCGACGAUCUCCCGUCCGCUGUGGGUGGUCCCCAGCUCUCCUCUGUGGGUUUUACCGGAAAGGUGGCCCCAGCUGUUGACUUCCAGUCACUGUCCCAGACGGCACAAGGUUUUCUGUAGUGGAAUUCUCGGGUGCCAA: 0.216
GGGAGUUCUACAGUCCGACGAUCAGGAGCCCCGAAGCUUUCCCCGACGUUCCUUUAACACAGAUUUCAUUGCAGCAGCCGCGCCCAGCCCAGGGAAGAAAGGAUGGGAAACCCCCGAGGUCUUCCUUGAACAUUGGAAUUCUCGGGUGCCAA: 0.63
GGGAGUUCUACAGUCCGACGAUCCCUUGAGUGGGAUGAGUCUUAGUGGGAAACAGUGCCGUCCGAGGUGGGAUGCGAUGAGAAGAUGUGAUCACUGCAGGCGCAGCGGCGAGUGGACAGCUGGCCGAGACCAGUGGAAUUCUCGGGUGCCAA: 0.694
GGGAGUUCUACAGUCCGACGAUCCCCAGAAGAGUGACUCAAGGACGGGGUCUCUCUAGCAACUGAGAAGACUAUGAUGAGUCCCCGAAAGGUCCUGCUGUGCCCUGAGCCUCCCUAGGUUUAGAAAAACAACUUGGAAUUCUCGGGUGCCAA: 0.324
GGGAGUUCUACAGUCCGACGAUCUGGAGCGCUGCUGUGACCACUGCCCUGGGCAGAAGGCCUGGAUGUCUCACUACUGAGCACCGAUGUGUAUGAUACUACAGACUAUAUUAAAGUGGAGUAACAUUUCUUUCUGGAAUUCUCGGGUGCCAA: 0.539
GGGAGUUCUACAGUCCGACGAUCAACUAUCUGUGUUGGGCUUCCCUGACACGGGAGAGGGGCAAGGAUAGACGAUUGACAUGGCACUGAUGGUCAGUUGCCCAGGGAGGCCGCUUACUCUGGAUGCAGAUGGCUGGAAUUCUCGGGUGCCAA: 0.493
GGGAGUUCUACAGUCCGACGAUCGGACAUCGGGACACCGAGAUAGCAUUUUUAGUACCAAUAAGAGACCUGAGAAUGGCCGGAGACCUCAGAUAUGUGUCUCUGCCAGUUGACUGGGCUGGUCCCUCUCAUUUUGGAAUUCUCGGGUGCCAA: 1.95
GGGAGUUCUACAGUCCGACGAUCUCUGACAGGUAAAAUGCUAAAAUAAGCUACCUGUAAUAAGUGUGGAUUAUAUUUUUGGGUUUUGUAGAAUAUUGCAAAUUAACCACACAAAAAAUGUUUAAUUUAUGCAAUGGAAUUCUCGGGUGCCAA: 1.09
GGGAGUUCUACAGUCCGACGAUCUGCACCAGGGUUGGCAUUGCUCCCACUGAGCCCUACUCCACCCUGUCCCUGCACUCCCUUGGUUGCCAAAAAAAUGAUAACUUAAAUCCCUUCCAGACUUAAGAAUUUUAUGGAAUUCUCGGGUGCCAA: 1.07

Block 2
Target: Interferon regulatory factor 7, full length, phosphomimetic (IRF7, Homo sapiens, UniProt Q92985, residues 1-503, S471D/S472D/S475D/S476D/S477D/S483D/S484D/S487D)
Sequence of UniProt Q92985 (whole entry, unmodified, looked up): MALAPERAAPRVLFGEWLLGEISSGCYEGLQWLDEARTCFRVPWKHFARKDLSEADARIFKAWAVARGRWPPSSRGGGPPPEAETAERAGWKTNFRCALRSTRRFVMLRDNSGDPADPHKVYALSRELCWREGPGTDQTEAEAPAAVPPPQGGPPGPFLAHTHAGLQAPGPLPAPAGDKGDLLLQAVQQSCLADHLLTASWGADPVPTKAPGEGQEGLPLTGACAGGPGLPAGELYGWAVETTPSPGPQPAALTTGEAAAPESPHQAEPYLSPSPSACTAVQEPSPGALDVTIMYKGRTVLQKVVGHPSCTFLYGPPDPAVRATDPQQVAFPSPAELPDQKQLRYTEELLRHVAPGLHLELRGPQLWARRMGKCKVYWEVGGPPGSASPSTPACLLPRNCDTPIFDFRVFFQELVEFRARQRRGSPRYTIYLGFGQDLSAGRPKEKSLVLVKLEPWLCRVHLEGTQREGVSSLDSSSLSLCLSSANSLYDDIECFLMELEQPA
Technique: protein-binding microarray
Form: double-stranded DNA, one strand shown
Matrix: in vitro
Tested at: 2200 nM top
Setting: 60-bp whole probe
Together with: salmon DNA 0.4 mg/ml
Reference: random background probes
Direction: higher = stronger binding
Quantity: fitted relative affinity
All sequences stand within: GCCTAGCAC … GTCTTGATTCGCTTGACGCTGCTG
GACGATTTCGGGTGTCGAGACGTGCTA: 2.22 z-score
GACGTTATCCTACTGCTGACGTGCTAG: 1.18 z-score
TTAGGTATCAGGTATCGGTTAGTGCTA: 0.453 z-score
GACGGGCTCGGTATCGGGACGTGCTAG: -0.846 z-score
ATAACACTCTTCTTTTGCTAAGTGCTA: 0.964 z-score
TCACATTTACATTTTAGACTGTGCTAG: 1.85 z-score
TTAGGACTGGGGACTGGGCTAGTGCTA: -1.25 z-score
TCAAGAATCCCCTTCTAACTGTGCTAG: 0.272 z-score

Block 3
Target: CCNB2, cyclin fold, Cln2 fusion (human)
Technique: yeast growth competition, sequencing
Matrix: yeast
Setting: weak parent motif
Reference: not given
Direction: higher = stronger binding
Quantity: normalised enrichment score
Starting sequence: SCAPER docking peptide (human); SNARRSLNFGGST
SEARRSLNFGGST [N2E]: -0.225
SNARRSLNFGVST [G11V]: 0.396
SNARRSLNFKGST [G10K]: 0.379
SNARRSLNFGSST [G11S]: -0.256
SNARRSLNFDGST [G10D]: -0.0173
SNARRSKNFGGST [L7K]: 0.307
SNARRSNNFGGST [L7N]: -0.12
HNARRSLNFGGST [S1H]: -0.205
SNARRSLNFGGSL [T13L]: 0.201
SNARRSLNFGGSV [T13V]: -0.00531

Mixed results
PhoQ, residues 284 288 289 292 302 303 SSCCRF
fold induction (PhoP, residues 12 14 15 18 19 YHFSH (Escherichia coli, UniProt P23836); Sort-seq, refers to: YFP reporter; E. coli; PhoQ-PhoP variant library, together with: 10 µM Mg2+; reference: high Mg2+ state, higher = stronger signaling): 4.35

Some of these lines once more (block 1):
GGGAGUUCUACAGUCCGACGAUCAGGUCUGAGCUUGUGAAAAGAAAGUGGUUGGUCUGAGGUUGGAGGAAGCUGAAUGGAAUCUGACGGUUGGGAGUGGUGGAAAUUGGAAGGAUACCAGGAGGUAUUUGGGAUGGAAUUCUCGGGUGCCAA: 1.33
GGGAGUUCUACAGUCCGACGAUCACAGACUGCAGCGUGCAUGGCCUCUACCCACAAGAGAUGCACUGCAGGAGGCCGGCCCUGUUCUCUGUACUCAGCAUUUUGACAUCUCCUUUGAAGGCCAGGUAUAUGUGUGGAAUUCUCGGGUGCCAA: 3.79
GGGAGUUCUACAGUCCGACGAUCUCCCGUCCGCUGUGGGUGGUCCCCAGCUCUCCUCUGUGGGUUUUACCGGAAAGGUGGCCCCAGCUGUUGACUUCCAGUCACUGUCCCAGACGGCACAAGGUUUUCUGUAGUGGAAUUCUCGGGUGCCAA: 0.216
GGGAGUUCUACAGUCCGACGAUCAGGAGCCCCGAAGCUUUCCCCGACGUUCCUUUAACACAGAUUUCAUUGCAGCAGCCGCGCCCAGCCCAGGGAAGAAAGGAUGGGAAACCCCCGAGGUCUUCCUUGAACAUUGGAAUUCUCGGGUGCCAA: 0.63
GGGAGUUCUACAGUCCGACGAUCCCUUGAGUGGGAUGAGUCUUAGUGGGAAACAGUGCCGUCCGAGGUGGGAUGCGAUGAGAAGAUGUGAUCACUGCAGGCGCAGCGGCGAGUGGACAGCUGGCCGAGACCAGUGGAAUUCUCGGGUGCCAA: 0.694
